# Experimental data from different studies.
# Each numbered part is a random draw from the data of one study; scales do not carry over between parts. Positions count from the first letter of the parent shown.

# Series 1
# Target: Hepatocyte nuclear factor 3-alpha (Foxa1, Mus musculus, UniProt P35582, residues 1-468, full length assumed)
# Technique: EMSA with sequencing
# Form: double-stranded DNA, one strand shown
# Medium: in vitro
# Concentration: 10 and 20 nM
# Setting: whole designed probe, mean of two concentrations, ends assumed
# Relative to: negative control set to 0
# Reading: higher = stronger binding
# All sequences stand within: GTGAGCGGTGCCCATTGATGGGGAAC … TTTCACTGGGATCGTGGGGAC
# Residues (chain): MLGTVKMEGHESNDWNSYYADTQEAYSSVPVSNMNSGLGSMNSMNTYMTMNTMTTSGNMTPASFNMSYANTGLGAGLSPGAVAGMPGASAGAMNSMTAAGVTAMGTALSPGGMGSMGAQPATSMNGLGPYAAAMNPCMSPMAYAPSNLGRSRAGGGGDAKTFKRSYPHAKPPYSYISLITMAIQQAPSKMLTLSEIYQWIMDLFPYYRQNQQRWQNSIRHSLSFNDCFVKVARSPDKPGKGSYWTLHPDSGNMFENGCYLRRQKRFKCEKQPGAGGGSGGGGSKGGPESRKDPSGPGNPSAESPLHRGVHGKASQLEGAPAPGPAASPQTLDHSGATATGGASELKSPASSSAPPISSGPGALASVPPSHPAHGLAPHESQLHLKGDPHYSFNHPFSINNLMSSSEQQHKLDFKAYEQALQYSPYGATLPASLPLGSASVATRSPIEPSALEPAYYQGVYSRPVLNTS
Sequence,normalised bound fraction [ratio]
CTCATTCCTTGCTTCCGCCAATAATCTGACTAGTAAAGAAGTCACTGCATGCCACAAATTGTCAGTGCTGACTTCCTCAACAAGGAAGTTATTTATTTACTTATTTAATATAGAGTGACTCAGTATGCAAATTCCATCTTGAGAATACCAACTCCTGATGCCAACTGATTGTCAGTCATGGCTACAACAGGAG,0.444
AAATTGAATAACACACGTAATTGTGCCTGACATAGATATATACATTTTATATATTATTCTTTCTATATAATTTACATGTATAGAATAATATATATGTTTACATTGTATATATTTATATTTTATATAATATGTTATAACAAATATTTATATCATATATAATATGTATTTGTATGTATAATTTATATGGAATTTA,0.518
GTGGGCAAAAATGCGAGTTCCGTTCATTGCCTATGACTCACATCTAATGTATGTTTAAAAGATGGGTCAGGGAAAATGTCAAGTGCCAAGCTGTGTTTATTTTGCAATAAAATAAAGGGACATAAGTAGGAAATGAATAGAACAACTACACCTAAGAACTCCTCAAATATTTGAAAAACGGCCGCAATCTGTG,0.294
AGATAAAGAATAAGACCTAATATATTTCATATTGTCCTTGAAGGTGAGGAGAGAGGAAATGGAGTGGAGCCATTGTTTTAAGGATGAATATGGGTAATCTTTTTCTGGAACTGATACATGACTGTGTGAGAAGAAAAACTGAGTCATTGTGCCTTGGTGACAATCAATCCATCTCCCATGTTTCAGACAACCT,-0.0544
CTGTTTTGATGATTTAGTAAAAAAAAAACTCTCCAAAATATTAATTTTCCATGTATACTTTCACAATTGTTTCCATATTTGTATATTTCCTGTAAATTACTTAATATTTCTAAGAGTACCTACAAGATGGCCTTTGCATTTAAAAGGAAAATATAAATAGAAGCTGTACTTCTTCTAATTCATATGAAAACGA,0.0718
ATGGTAGAGGGAGCTGGCCCTGCATACTGGTATCAGCGTAAAGAACAGTCAGGCGTGCCTGTGAGCAAGGCAGGGCCGTGACTCAGACTTCAGTAATCTCGAAGTGTGAGTTCAACCCAGAAAAATGCTGTCTCAGGTTTTGCAGACTTGTCAGAAATAAATCACCAACTTTAGGAAGCTTTGGTGCAAGAGC,-0.0726
GAAAAGTGCAAAGCGTTGGCATCTGGGTCCTTCGTGAAGCTGTGTGATTCTGGACTTTGGACTGTAGTCCACTGTAGCCTGCCTTCTCACTGTGTAAATACATAACTACATGGGCTCCGGTCAGCTTGCCACACGCCACAGGCTATGCCTAATTCTACAAAGCCTGAAGGAAAAATACTGTGAAAAATACTTA,0.314
ATCTTCCCCCTCTTCCTTGCCCCACCAGCTCACCTACGGGGGTTATTTGCAGATAGGAAAATAAATAAAGCCGGCATTCGTTAACGCAGTTCACGCGCATACTGCTGTTTGCTCTGCATGAATCATGGTCCTTACGCGAGGCGTGGCTCCGGGAGAGCAAAGCACCGTGTCAGGCGCATGATCCGGGCTCGCC,0.359

# Series 2
# Target: Ras GTPase-activating protein-binding protein 1, full length (G3BP1, Homo sapiens, UniProt Q13283)
# UniProt Q13283, sequence (whole entry, looked up): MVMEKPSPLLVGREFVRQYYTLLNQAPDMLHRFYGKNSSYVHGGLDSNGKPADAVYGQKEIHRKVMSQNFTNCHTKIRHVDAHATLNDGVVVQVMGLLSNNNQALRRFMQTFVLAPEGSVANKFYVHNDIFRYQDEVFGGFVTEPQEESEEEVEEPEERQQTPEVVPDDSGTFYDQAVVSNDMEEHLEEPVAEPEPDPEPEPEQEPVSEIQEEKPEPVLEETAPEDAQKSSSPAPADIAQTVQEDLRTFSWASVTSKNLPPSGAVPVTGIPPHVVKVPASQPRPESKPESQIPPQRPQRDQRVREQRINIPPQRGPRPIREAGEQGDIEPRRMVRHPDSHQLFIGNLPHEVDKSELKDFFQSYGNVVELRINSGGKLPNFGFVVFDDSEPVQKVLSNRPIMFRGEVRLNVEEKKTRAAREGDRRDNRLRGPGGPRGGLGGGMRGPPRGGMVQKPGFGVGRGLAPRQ
# Technique: RNA Bind-n-Seq
# Form: RNA
# Medium: in vitro
# Concentration: 200 nM
# Setting: whole 134-nt RNA, ends assumed
# With: 150 mM LiCl
# Relative to: input library
# Reading: higher = stronger binding
# Library: 7-deaza-guanosine replaces G
# All sequences stand within: GGGAGUUCUACAGUCCGACGAUC … UGGAAUUCUCGGGUGUCAAGG
Sequence,log2 enrichment
AGUCCUGUGCUACACAUCGUAUGUACCGAAUCGGGGUUUUUGGUUUUUGGUUUUUGGAAAGUAUUAUGUUACGCCGUUCGGAUCUGCACU,-1.15
UCAAGUCCUGUGCUACACAUCGUAUGUACCGAAUCGGUUUGGGUUUGGGUUUGGGAAAGUAUUAUGUUACGCCGUUCGGAUCUGCACUUC,-1.4
UAACUUUAGAGGAGGAUCUGAUGGAUAUCGCAGUGGACGUGGAUUUGGGGAUGGCUAUAAUGGGUAUGGAGGAGGACCUGGAGGUGGCAA,-0.0955
UCCUGUGCUACACAUCGUAUGUACCGAAUCGGGGAAAGGGGAAAAAGGGGUUUUUGGGGAAAGUAUUAUGUUACGCCGUUCGGAUCUGCA,0.659
UCCUGUGCUACACAUCGUAUGUACCGAAUCAAAUUUUUAAAUUUUUUUAAAUUUUUAAAAAAGUAUUAUGUUACGCCGUUCGGAUCUGCA,-3.31
CUCAAGUCCUGUGCUACACAUCGUAUGUACCGAAUCGGUUGGGUUGGGUUGGGGAAAGUAUUAUGUUACGCCGUUCGGAUCUGCACUUCC,-0.438
GCAGGAAGUAAAAACAAAUGGAAAUGCUUAAAAUAGUGGCAGGGGUGGGGGUUGCUAAGGAAAGGGUGGGAUGGGAGUGGGUAAAGAGUU,-0.416
GUCCUGUGCUACACAUCGUAUGUACCGAAUCGGGGUGGGGAAAAAAAGGGGUUUGGGGAAAGUAUUAUGUUACGCCGUUCGGAUCUGCAC,-0.505
CAAGUCCUGUGCUACACAUCGUAUGUACCGAAUCGGGAGGGAGGGAAAAAAAGGGAAAGUAUUAUGUUACGCCGUUCGGAUCUGCACUUC,-0.0454
ACCAUGCAGGUGGGCAUCUUUGGGAAGUGGGGCCAGGGGGGGAUAGGGAGGGGGGUAACACUUUGGGAACAGGUGGUCCCAGGUCGUUUC,-0.178
CUCAAGUCCUGUGCUACACAUCGUAUGUACCGAAUCGGUUUGGAAAAAGGUGGAAAGUAUUAUGUUACGCCGUUCGGAUCUGCACUUCCA,0.07

# Series 3
# Target: CREB3L3, bZIP domain (human)
# Technique: DHFR protein complementation
# Medium: yeast
# Setting: single substitutions, most at no-binding floor
# Relative to: wild-type JUN-FOS pair
# Reading: higher = stronger binding
# Starting sequence: JUN, bZIP domain (human); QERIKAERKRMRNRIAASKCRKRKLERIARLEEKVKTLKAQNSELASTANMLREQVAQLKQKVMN; partner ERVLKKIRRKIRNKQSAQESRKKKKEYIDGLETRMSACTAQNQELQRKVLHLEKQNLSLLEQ
Variant,binding fitness [natural log]
S43P,-1.53
L31R,-1.52
K36G,-1.37
A40N,-1.51
T37H,-1.6
S43V,-1.45
N42T,-1.5
Q41T,-1.38
L38W,-1.5
T37V,-1.2
T37A,-1.28

# Series 4
# Target: Centromere-binding protein 1, full length, His-tagged (CBF1, Saccharomyces cerevisiae, UniProt P17106, residues 1-351)
# UniProt P17106, sequence (whole entry, looked up): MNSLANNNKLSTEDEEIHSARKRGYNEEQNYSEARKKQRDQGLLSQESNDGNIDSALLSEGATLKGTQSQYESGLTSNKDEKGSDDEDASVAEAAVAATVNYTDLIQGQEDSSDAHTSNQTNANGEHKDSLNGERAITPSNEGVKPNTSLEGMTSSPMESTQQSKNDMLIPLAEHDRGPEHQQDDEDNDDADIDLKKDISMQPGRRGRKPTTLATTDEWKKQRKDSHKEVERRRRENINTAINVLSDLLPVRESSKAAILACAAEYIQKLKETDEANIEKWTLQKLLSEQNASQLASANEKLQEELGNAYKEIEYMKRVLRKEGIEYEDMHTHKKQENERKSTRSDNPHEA
# Technique: competition protein-binding microarray
# Form: double-stranded DNA, one strand shown
# Medium: in vitro
# Concentration: 2 µM
# Setting: whole 60-bp probe, lowest competitor level
# With: Pho4 competitor, 0.05 µM
# Reading: higher = stronger binding
# All sequences stand within: … GTCTTGATTCGCTTGACGCTGCTG
Sequence,fluorescence intensity [a.u.]
CAATCGTCCCGGTGCCACATGAACCAAAACATTTGC,74.6
TGCGCAACAACTTGTAATGTGGGTGTATGTCTAGAA,82.4
TCGTCAGGACAAATGAACGTGGTCGATCCTCCGCCG,71.6
AAATTACTAAGTTGCTTAGTGGGTGACGCCGTATGA,62.4
CGTCCTAGTGATTGGCTCGTGGGTGCCATGAGGAAG,87.8
ATGGCCTTTTGGCCTCACATGACAAATACAATCTCG,485
ACTGGGCGCAACAAACACCTGATGTAACTCCTACCC,156
CGTCCTAGTGATTGTGTCGTGGGTGCCATGAGGAAG,74.8
AAATTACTAAGTTGGTAGGTGGGTGACGCCGTATGA,67.5
GGGCGCCGCGACGGTCACGTGCACAGCGGCAGGCCT,13300
CGTCCTAGCGATTGAGGCGTGGGTGCCATGAGGAAG,66.4
CATACCCAACCTTGCGTGGTGGGTGAAGATATTTGT,62.3
TGGTTACAAGATATACGCGTGACTCGTTTTTTATTT,652
AAAGATTTGATAAAGCACGTGTCGGATTAGATGCTT,1990
CCAGCAGAAACGCTACACGTGATGGTAATGGAACTA,2760
CTTCTGTAAATTTGGATAGTGGGTGGACGCGCCCCG,85.1
CTTCTGTAAATTTGAATTGTGGGTGGACGCGCCCCG,83.8
TGGTCTCAGTGCTGGCACCTGACGAACTATTCGTAG,254
CTTTCCCGATCTTGTCCTGTGGGTGTAGCACATTTG,84.2
AAAGCGGTAATTTGCGTTGTGGGTGCAGATATCTAT,87.1
TTCCGGGGAACGTCCCACGTTCACAACCGCGCCGCG,59.9
AAAGCGGTAATTTTTCACGTGCTGTCAAATATCTAT,1850

# Series 5
# Target: CCNB3, cyclin fold, Cln2 fusion (human)
# Technique: yeast growth competition, sequencing
# Medium: yeast
# Setting: weak parent motif
# Relative to: not given
# Reading: higher = stronger binding
# Starting sequence: SAMHD1 docking peptide (human); ASKSRVQLFKDDP
Variant,normalised enrichment score
K10N,0.0728
D12L,-0.0112
Q7S,-0.195
L8I,-0.103
F9K,-0.157
V6C,-0.00561
D12R,-0.0779
V6E,-0.279
F9S,0.0479
D12W,-0.135
S2T,-0.0197
S2Q,-0.215
V6W,0.101
V6R,0.11
D11H,-0.0453
